Measured values from different studies.
Numbered parts are unrelated; each lists some results of a single study. Changes are numbered by the printed parent chain.

Study 1
Target: Fragile X messenger ribonucleoprotein 1, C-terminal low-complexity region (Fmr1, Mus musculus, UniProt P35922)
Method: RNA Bind-n-Seq
Molecule type: RNA
Matrix: in vitro
Tested at: 200 nM
Setting: whole 134-nt RNA, ends assumed
With: 150 mM LiCl
Reference: input library
Reading: higher = stronger binding
All molecules: 7-deaza-guanosine replaces G
Shared flanks, not repeated: GGGAGUUCUACAGUCCGACGAUC … UGGAAUUCUCGGGUGUCAAGG
Strand | log2 enrichment
ACCAUGCAGGUGGGCAUCUUUGGGAAGUGGGGCAAGGGGGGGAUAGGGAAAAGGGUAACACUUUGGGAACAGGUGGUCCCAGGUCGUUUC | 0.833
ACCAUGCAGGUGGGCAUCUUUGGGAAGUGGGGCAAGGGGGGGAUAGGGAGGGGGAUAACACUUUGGGAACAGGUGGUCCCAGGUCGUUUC | 1.43
CUGUGCUACACAUCGUAUGUACCGAAUCGGGUUUUUUUGGGUUUUUUUGGUUUUUUUGGGGAAAGUAUUAUGUUACGCCGUUCGGAUCUG | 0.556
UCAAGUCCUGUGCUACACAUCGUAUGUACCGAAUCGGGGCCGGGGCCGGGCCGGGAAAGUAUUAUGUUACGCCGUUCGGAUCUGCACUUC | 0.402
CAAGUCCUGUGCUACACAUCGUAUGUACCGAAUCGGGAGGGUUUUUGGGAAAGGGAAAGUAUUAUGUUACGCCGUUCGGAUCUGCACUUC | -0.361
ACCAUGCAGGUGGGCAUCUUUGGGAAUUGGGGCAAGGGGGGGAUAGGGAGGGGGGUAACACUUUGGGAACAGGUGGUCCCAGGUCGUUUC | 1.74
CACAGACAACACGCACCCACACAGACACAGAGGGAAGGGGUUGGGAUGGGGACAGGGUGCACAGCAGGGCGGGGUAGGACCCCAGCCCCC | 0.469

Study 2
Target: RNA binding protein fox-1 homolog 2, RRM domain, GST-SBP tag (RBFOX2, Homo sapiens, UniProt O43251-10, residues 100-194)
Method: RNA Bind-n-Seq
Molecule type: RNA
Matrix: in vitro
Tested at: 365 nM
Setting: natural RNA segment, single round, ends assumed
Reference: no-protein control
Reading: higher = stronger binding
Shared flanks, not repeated: GGGAGUUCUACAGUCCGACGAUC … UGGAAUUCUCGGGUGCCAA
Residues (chain): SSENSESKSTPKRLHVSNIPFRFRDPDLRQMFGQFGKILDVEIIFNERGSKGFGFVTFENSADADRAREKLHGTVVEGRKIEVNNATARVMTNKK
Strand | RBNS enrichment (R)
GGUUUGGGAAGAAACAAAGCCAUGCCUGCUCCUGCCUCUCUCCCAACAUGUUUCCAGCAAGUAGAUGCCCCUGUGUGUGUUUUCCCUUGCCUUGUUUCCUGCCUUAUAUC | 7.21
UUUGAGAACCAAGUAAAACAAAACCACUGGGAGGAGUCUAUUUUAAAGAAUUCGGUUGAAAAAAUAGAUCCAAUCAGUUUAUACCCUAGUUAGUGUUUUGCCUCACCUAA | 0.867
UCUUUCACUUGUAUGUACAGAGAGGUUUUUCUGAAUAUUUAUUUUAAGGGUUAAAUCACUUUUGCUUGUGUUUAUUACUGCUUGAGGUUGAGCCUUUUGAGUAUUUAAAA | 0.698
UGCUUCGCCCCACUGCAUAGCUGUGUUAAGCUACAUGGCUUUAAUGAUAAAUGGGUUUAUUUCUAAGGUGUGUGGGCCAGAUACCUUGUGUUUCUUAGAUACCCACGUGG | 0.302
CUGGACAGAGCCAGCCUGAGGCCCACGGGCAGCUGCCUGUUUGCAUGCCUGGGAAGAGGUCCUCAGUGUGAGUUGGGGUCAAACUUGGGCUCCAAGCUGCUUGAGGGGGU | 4.48
GGGGGGGCUGGGAAGUCCCCUGCAUCCCAUGGUACCCUGGUAUUGGGACAGCAAAAGCCAGUAACCAUGAGUAUGAGGAAAUCUCUUUCUGUUGCUGGCUUACAGUUUCU | 2.71
GCAGUCUCAUGCAUGAGAGGUUACCCUUCAGGAUGACAGAGCUGAGGGUCUUUGUAGGAGUUGCUCUUGCUGUGUAAAGCACUAUUGUCUUGGGGUUGAGCCCUAGGGCA | 14.4
CCUCUCGGAGCAGGGAGCUCACCUUCCGCGACGUGUUCUGAGGGUCUGCAUCUUAGGGGGGAGGGCUGGGGCAAAUCGCCACCUGUGCCUUUCCUCUGGCCCUGCUGCCC | 0.338
CUAAUCCCUCCUUGCCCACCCAUUACAAAUGAACAUCAUCCCAAACUUUGCUUUCAGUUUCUUGGUAAGCAACAGCUGUCUGGCAAUGCUCAAGGAAUCCACAUCUGGUG | 0.72
AAGAUCUAUGCCUUAGUGUUGUUUUUGUUGUCUGCUUUGAUGUAAAAGCAAGAGUAUUUGGAGCAAGAAGCUGCAAUGCGCCAAAUACACAAUAGGCCUUUUCUUUAUCA | 0.491
UCUAAGACAGGAAGGAAAGUGAAGGCAGAGUGAGCAGGUAAGAGAGGGAUAUACAAGGUCACAUUUCAGACACCCACUCGGCAUACCCUGCCGUACUGCAUCAUCAUUUG | 0.371
AAUUAUCUAAAAUUCAAUAAAAUUUUAUUCAUAUAAAAUAAGUUGUCAUUAAUUAUCAAUACUAACGAGUAUGUCAUUUUAAAACUUAGUAUUCUCUUUAAUGUUACAAG | 1.16

Study 3
Target: Histone acetyltransferase KAT6A, both winged helices, GST fusion (KAT6A, Homo sapiens, UniProt Q92794, residues 1-181)
Method: protein binding microarray
Molecule type: double-stranded DNA, one strand shown
Matrix: in vitro
Tested at: not given
Setting: 8-mer, flanks averaged, mean of 2 arrays, mostly near background
Reference: not given
Reading: higher = stronger binding
Construct (chain): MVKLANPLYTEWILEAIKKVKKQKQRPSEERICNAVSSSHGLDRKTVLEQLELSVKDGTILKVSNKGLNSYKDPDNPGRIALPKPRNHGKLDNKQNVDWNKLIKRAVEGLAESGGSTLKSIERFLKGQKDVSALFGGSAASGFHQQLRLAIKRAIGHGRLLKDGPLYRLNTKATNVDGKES
Strand | E-score
AGGTTCTG | 0.00526
CTCCTCAC | -0.127
ACTAGGTG | -0.185
AAAAGTGA | -0.0838
CCTCAGCG | 0.197
TATACACA | -0.0309
ATCCTCAT | -0.168
TTCAGCAA | -0.226
AGTGTGGA | -0.179
AATGGGCT | -0.187
AGTGCTGG | -0.173
ACCGATAC | 0.0796
CAGAGCTA | -0.129
CCACACCG | 0.0655
CTAATGAC | -0.175
GACACACC | 0.0144
GTATGGCA | -0.0572
CCAAGGGG | -0.174
ACCACGCT | 0.0096
CTTCACGC | 0.217
AACCCCGT | 0.222
AGCTGGTC | -0.0543

Study 4
Target: Cyclic AMP-responsive element-binding protein 1 (CREB1, Homo sapiens, UniProt P16220, residues 1-327, full length assumed)
Sequence of UniProt P16220 (whole entry, looked up): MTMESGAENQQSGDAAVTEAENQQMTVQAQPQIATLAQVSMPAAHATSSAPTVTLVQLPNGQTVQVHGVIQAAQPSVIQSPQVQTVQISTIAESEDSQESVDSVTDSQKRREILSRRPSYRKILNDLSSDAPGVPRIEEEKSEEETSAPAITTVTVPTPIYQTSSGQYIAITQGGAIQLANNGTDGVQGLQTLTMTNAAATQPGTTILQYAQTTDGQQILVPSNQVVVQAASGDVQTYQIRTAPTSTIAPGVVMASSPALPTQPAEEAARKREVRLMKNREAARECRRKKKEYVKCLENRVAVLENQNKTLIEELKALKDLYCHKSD
Method: protein-binding microarray
Molecule type: double-stranded DNA, one strand shown
Matrix: in vitro
Tested at: not given
Setting: k-mer, scored over probes, only values ≥0.25
Reading: higher = stronger binding
Strand | E-score
ACGTTAC | 0.323
GTCATAA | 0.376
CTCGTCA | 0.289
ACGTAGT | 0.263
AAGATGA | 0.261
AAACGTC | 0.305
ACATCAT | 0.277
ATATACA | 0.284
AAAAAAC | 0.257
ATACGTC | 0.344
ACGTTAA | 0.276
ATGACAT | 0.322
CACGTTA | 0.283
CCGTGAC | 0.279

Study 5
Target: CCNE1, cyclin fold, Cln2 fusion (human)
Method: yeast growth competition, sequencing
Matrix: yeast
Setting: strong parent motif
Reference: not given
Reading: higher = stronger binding
Parent: PKN2 docking peptide (human); VSAVRKLDFSDTM; partner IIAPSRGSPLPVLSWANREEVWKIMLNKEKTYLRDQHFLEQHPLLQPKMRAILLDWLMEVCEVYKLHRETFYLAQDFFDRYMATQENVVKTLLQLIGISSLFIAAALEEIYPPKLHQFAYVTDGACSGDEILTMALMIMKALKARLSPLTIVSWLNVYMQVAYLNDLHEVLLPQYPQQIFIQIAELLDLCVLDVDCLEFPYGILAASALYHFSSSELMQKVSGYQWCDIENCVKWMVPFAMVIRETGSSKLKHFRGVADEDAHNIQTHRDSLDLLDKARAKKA
Variant | normalised enrichment score
VSAVRKLDFLDTM [S10L] | 4.44
VSAVRKLDFSDCM [T12C] | 5.36
VSAVRKLDFYDTM [S10Y] | 4.35
VSAVRKLDDSDTM [F9D] | 0.0312
VSTVRKLDFSDTM [A3T] | 4.17
VSAVRKLDFSITM [D11I] | 5.28
VSAVMKLDFSDTM [R5M] | 0.782
VSACRKLDFSDTM [V4C] | 5.54
VSAVRRLDFSDTM [K6R] | 5.94
VSAVRWLDFSDTM [K6W] | 4.28
VSAVRKLDFSPTM [D11P] | 5.3
VSAVRKLGFSDTM [D8G] | 1.16
VSAVRKLLFSDTM [D8L] | 3.21
VSAVRKLDFSDAM [T12A] | 5.77
VSAVRSLDFSDTM [K6S] | 2.74
VSAVRKLIFSDTM [D8I] | 4.5

Study 6
Target: Interferon regulatory factor 7, full length, phosphomimetic (IRF7, Homo sapiens, UniProt Q92985, residues 1-503, S101K/S471D/S472D/S475D/S476D/S477D/S483D/S484D/S487D)
Method: protein-binding microarray
Molecule type: double-stranded DNA, one strand shown
Matrix: in vitro
Tested at: 250 nM
Setting: 60-bp whole probe
With: salmon DNA 0.4 mg/ml
Reference: random background probes
Reading: higher = stronger binding
Shared flanks, not repeated: GCCTAGCAC … GTCTTGATTCGCTTGACGCTGCTG
Construct (chain): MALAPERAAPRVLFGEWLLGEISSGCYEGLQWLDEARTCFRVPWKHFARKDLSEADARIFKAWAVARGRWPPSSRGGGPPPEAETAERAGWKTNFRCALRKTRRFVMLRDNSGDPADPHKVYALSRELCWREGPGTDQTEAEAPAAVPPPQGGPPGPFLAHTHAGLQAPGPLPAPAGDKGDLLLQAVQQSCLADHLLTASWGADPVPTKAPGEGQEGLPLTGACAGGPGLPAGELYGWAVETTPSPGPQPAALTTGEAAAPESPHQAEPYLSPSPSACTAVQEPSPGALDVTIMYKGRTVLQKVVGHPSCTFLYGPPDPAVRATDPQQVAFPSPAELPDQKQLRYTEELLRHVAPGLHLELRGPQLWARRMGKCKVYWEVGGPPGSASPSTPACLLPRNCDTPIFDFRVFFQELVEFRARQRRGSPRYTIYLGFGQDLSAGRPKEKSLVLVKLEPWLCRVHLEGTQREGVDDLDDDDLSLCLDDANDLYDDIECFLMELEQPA
Strand | log fluorescence [z-score]
GACGATTTCGGGTTTCGAGATGTGCTA | 5.33
TCAAGTCTCTGTTCTTTACTGTGCTAG | 2.22
TATTCCCCATCACTCACTCTGTGCTAG | 3.05
TGAAGACTTTCTTTCAAATGGTGCTAG | -0.204
GACGGACTGGACGCTGGGGACGTGCTA | -0.731
TTAGGTTTCCTTTTCCTTGAGTGCTAG | 6.72
GTAGGTCTCCTTCTCCTTTAGTGCTAG | -0.0796
TCATGTATGGATGTGTCACTGTGCTAG | -0.224
AGACAAGCATTTGGTGATGCGTGCTAG | -0.901
TTAGGTATCGCGACTGGGTTAGTGCTA | -0.503
TCTGTTTTTGCTTTCTTTATGTGCTAG | 1.88
GACGGACTGAGTCTCGGGACGTGCTAG | -0.291
TCAACTTTCTTTAACATACTGTGCTAG | 0.44
GACGGTTTGGACTATCGGGACGTGCTA | -0.256
TCACATTTATATCTTTGACTGTGCTAG | 0.566
TCATTTTGCTTTCTTTTACTGTGCTAG | 1.93
CCGAGTCCCTATCTCCTCACGTGCTAG | 1.09
TCACTTCTGGTGCTCATCTGGTGCTAG | 0.523
GACGGTATCGGGACTGGTGACGTGCTA | -0.254
TTAGATGTCGGGTATCGATTAGTGCTA | 0.362
GACGGTTCCGGTTGCGGGACGTGCTAG | 1.33
TTAGGTATCGGACTGGGTGAGTGCTAG | 0.17
TTAGGGTCCGGTTTCGGTTAGTGCTAG | 9.24
TCCTCTTTCTCTGCTACCCTTGTGCTA | 1.66
GAGTTCCTCTCTAGGCACTGGTGCTAG | 1.3

Single results of other studies
Substance | target | assay | test system | conditions | scale | measurement | result
PhoQ, residues 284 288 289 292 302 303 TASMAF | PhoP, residues 12 14 15 18 19 NHFIF (Escherichia coli, UniProt P23836) | Sort-seq, item: YFP reporter | E. coli | PhoQ-PhoP variant library, with: 10 µM Mg2+ | reference: high Mg2+ state, higher = stronger signaling | fold induction | 15.7

Repeated from above (study 6):
Strand | log fluorescence [z-score]
TCTGTTTTTGCTTTCTTTATGTGCTAG | 1.88
GACGGACTGAGTCTCGGGACGTGCTAG | -0.291
TCAACTTTCTTTAACATACTGTGCTAG | 0.44
GACGGTTTGGACTATCGGGACGTGCTA | -0.256
TCACATTTATATCTTTGACTGTGCTAG | 0.566
TCATTTTGCTTTCTTTTACTGTGCTAG | 1.93
CCGAGTCCCTATCTCCTCACGTGCTAG | 1.09
